Assay results of several laboratories.
A part holds a random share of what one study measured.

Block 1
Target: Prothrombin, mature alpha-thrombin (F2, Homo sapiens, UniProt P00734)
Method: aptamer microarray, sandwich
Molecule type: DNA with 2'F-ANA
Sample: in vitro
Concentration: 200 nM
Notes: whole 15-mer aptamer, many near background
With: Cy3 exosite-II aptamer, 400 nM
Direction: higher = stronger binding
Strand	mean fluorescence intensity [a.u.]
GGTTGGTGTGGTTGG (2'F-ANA at 1 4 6 7 8 11 12 15)	244
GGTTGGTGTGGTTGG (2'F-ANA at 2 4 5 6 7 8 9 10 13 15)	47.3
GGTTGGTGTGGTTGG (2'F-ANA at 1 6 8 10 13 14 15)	49.4
GGTTGGTGTGGTTGG (2'F-ANA at 2 3 8 9 12 15)	1020

Block 2
Target: Sal-like protein 4, full length isoform B (SALL4, Homo sapiens, UniProt Q9UJQ4-2, residues 1-616)
Method: universal PBM
Molecule type: double-stranded DNA, one strand shown
Sample: in vitro
Concentration: not given
Notes: 8-mer, flanks averaged, mean of replicates
Direction: higher = stronger binding
Residues (chain): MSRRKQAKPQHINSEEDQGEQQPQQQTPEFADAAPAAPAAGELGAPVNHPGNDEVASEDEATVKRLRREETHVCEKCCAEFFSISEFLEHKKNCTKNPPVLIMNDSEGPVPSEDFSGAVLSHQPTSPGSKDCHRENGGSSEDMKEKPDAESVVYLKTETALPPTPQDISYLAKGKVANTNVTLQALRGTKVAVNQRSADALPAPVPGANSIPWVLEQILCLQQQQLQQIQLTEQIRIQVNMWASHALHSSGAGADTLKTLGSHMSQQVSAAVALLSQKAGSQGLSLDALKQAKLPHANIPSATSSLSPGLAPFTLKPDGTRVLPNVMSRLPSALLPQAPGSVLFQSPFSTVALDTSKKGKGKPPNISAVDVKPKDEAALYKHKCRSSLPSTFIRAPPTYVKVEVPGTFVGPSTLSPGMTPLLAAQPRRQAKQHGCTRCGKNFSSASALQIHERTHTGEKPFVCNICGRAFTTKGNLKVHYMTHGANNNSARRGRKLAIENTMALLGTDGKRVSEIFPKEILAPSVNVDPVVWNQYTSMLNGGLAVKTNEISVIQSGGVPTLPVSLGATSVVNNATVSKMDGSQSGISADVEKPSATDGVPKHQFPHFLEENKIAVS
Strand	E-score
CGACTCAG	-0.182
ATCTCTGC	-0.0155
CAAGACCC	-0.188
AATCGACT	0.00528
CCGATACA	0.112

Block 3
Target: Phosphate system positive regulatory protein PHO4, full length, GST-tagged (PHO4, Saccharomyces cerevisiae, UniProt P07270, residues 1-312)
Method: competition protein-binding microarray
Molecule type: double-stranded DNA, one strand shown
Sample: in vitro
Concentration: 2 µM
Notes: whole 60-bp probe, lowest competitor level
With: Cbf1 competitor, 0.05 µM
Direction: higher = stronger binding
Shared flanks, not repeated: … GTCTTGATTCGCTTGACGCTGCTG
Construct (chain): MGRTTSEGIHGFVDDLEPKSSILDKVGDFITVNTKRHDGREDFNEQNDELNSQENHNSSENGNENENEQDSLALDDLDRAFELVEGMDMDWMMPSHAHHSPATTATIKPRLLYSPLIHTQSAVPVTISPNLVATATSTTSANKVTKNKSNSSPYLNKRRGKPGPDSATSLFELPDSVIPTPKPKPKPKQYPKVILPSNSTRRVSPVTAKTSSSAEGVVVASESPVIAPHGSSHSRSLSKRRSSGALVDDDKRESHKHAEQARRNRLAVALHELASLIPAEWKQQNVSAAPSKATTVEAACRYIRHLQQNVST
Strand	fluorescence intensity [a.u.]
CGTCCTAGTGATTGTTCGGTGGGTGCCATGAGGAAG	6870
CACAGTGGTAACGGCACCGTGGCCGGGAAACGGTTC	7110
TATTCAGCCAGTTTGTATATATGAGAATTAAACGTT	4190
GGAGACGAAGGATGGGGCGTGCTGTCATTAGAGGTA	10300
AAAAAAAGAACTGTGTACGTGATGGCTTTGTCCCCT	5010

Other studies, line by line
Substance	target	assay	system	setting	how to read	measurement	result
PhoQ, residues 284 288 289 292 302 303 AAQSYM	PhoP, residues 12 14 15 18 19 LYHSL (Escherichia coli, UniProt P23836)	Sort-seq, refers to: YFP reporter	E. coli	PhoQ-PhoP variant library, with: 10 µM Mg2+	baseline: high Mg2+ state, higher = stronger signaling	fold induction	14.7

For quick reference, copied from above (other studies, line by line):
Substance	target	assay	system	setting	how to read	measurement	result
PhoQ, residues 284 288 289 292 302 303 AAQSYM	PhoP, residues 12 14 15 18 19 LYHSL (Escherichia coli, UniProt P23836)	Sort-seq, refers to: YFP reporter	E. coli	PhoQ-PhoP variant library, with: 10 µM Mg2+	baseline: high Mg2+ state, higher = stronger signaling	fold induction	14.7
